Assay results gathered from unrelated publications.
Compare with care: the assays were run in different laboratories. ± marks the error that the study gave.
PTH1R: Parathyroid hormone/parathyroid hormone-related peptide receptor (PTH1R, Homo sapiens, UniProt Q03431)
UniProt Q03431, sequence (whole entry, looked up): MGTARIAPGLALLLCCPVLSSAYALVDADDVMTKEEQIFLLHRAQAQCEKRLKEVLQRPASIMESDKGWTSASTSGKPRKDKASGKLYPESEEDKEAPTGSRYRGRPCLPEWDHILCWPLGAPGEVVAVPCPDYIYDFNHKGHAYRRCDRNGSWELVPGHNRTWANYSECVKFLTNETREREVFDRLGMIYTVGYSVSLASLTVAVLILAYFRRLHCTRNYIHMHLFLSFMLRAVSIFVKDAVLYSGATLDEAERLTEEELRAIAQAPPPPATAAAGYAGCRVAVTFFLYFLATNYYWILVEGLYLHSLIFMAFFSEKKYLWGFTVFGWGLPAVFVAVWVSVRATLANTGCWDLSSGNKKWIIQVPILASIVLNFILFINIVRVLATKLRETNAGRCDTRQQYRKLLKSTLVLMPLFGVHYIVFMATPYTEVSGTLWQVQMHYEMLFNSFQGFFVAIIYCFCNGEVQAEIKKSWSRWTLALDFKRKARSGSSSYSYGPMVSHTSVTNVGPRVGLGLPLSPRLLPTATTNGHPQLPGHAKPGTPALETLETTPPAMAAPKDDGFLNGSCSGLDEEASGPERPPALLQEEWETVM
T1: ssDNA; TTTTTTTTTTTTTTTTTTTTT
UniProt Q00194, sequence (whole entry, looked up): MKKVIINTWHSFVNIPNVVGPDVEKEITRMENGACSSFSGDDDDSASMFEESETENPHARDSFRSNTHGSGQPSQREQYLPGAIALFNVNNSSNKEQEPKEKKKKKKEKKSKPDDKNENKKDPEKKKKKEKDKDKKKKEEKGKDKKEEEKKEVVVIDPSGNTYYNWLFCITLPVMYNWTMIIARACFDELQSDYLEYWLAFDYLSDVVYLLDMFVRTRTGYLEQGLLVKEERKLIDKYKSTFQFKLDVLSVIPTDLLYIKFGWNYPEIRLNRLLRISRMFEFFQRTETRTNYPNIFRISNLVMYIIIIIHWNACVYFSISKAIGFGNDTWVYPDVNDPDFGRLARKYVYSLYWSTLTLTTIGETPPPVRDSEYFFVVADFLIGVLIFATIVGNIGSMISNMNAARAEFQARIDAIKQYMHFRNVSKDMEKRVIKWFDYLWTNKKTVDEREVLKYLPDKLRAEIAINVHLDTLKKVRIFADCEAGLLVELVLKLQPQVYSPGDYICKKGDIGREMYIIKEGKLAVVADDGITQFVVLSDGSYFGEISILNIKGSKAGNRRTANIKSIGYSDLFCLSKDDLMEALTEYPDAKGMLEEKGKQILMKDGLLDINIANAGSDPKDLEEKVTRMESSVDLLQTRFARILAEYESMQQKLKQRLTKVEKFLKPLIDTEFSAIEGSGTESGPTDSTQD
UniProt P11309, sequence (whole entry, looked up): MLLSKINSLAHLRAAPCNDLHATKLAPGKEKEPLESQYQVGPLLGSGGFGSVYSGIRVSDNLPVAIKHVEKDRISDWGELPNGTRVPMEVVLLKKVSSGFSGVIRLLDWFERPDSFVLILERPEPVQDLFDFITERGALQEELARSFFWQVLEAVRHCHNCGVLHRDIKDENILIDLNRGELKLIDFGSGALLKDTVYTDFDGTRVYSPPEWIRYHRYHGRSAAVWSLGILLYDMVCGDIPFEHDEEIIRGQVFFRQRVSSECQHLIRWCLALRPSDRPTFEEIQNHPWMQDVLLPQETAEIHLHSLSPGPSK
UniProt Q6TCG2, sequence (whole entry, looked up): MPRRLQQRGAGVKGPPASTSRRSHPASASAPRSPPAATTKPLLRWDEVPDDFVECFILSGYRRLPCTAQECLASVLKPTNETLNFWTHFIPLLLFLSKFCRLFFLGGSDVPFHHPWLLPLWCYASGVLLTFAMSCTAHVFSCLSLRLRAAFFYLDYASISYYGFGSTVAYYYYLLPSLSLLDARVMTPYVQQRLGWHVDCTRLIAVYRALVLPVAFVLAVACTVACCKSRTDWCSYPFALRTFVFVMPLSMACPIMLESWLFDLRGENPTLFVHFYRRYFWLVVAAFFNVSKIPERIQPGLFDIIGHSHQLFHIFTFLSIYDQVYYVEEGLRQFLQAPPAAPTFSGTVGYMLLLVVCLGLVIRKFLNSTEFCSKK
UniProt Q7L0J3, sequence (whole entry, looked up): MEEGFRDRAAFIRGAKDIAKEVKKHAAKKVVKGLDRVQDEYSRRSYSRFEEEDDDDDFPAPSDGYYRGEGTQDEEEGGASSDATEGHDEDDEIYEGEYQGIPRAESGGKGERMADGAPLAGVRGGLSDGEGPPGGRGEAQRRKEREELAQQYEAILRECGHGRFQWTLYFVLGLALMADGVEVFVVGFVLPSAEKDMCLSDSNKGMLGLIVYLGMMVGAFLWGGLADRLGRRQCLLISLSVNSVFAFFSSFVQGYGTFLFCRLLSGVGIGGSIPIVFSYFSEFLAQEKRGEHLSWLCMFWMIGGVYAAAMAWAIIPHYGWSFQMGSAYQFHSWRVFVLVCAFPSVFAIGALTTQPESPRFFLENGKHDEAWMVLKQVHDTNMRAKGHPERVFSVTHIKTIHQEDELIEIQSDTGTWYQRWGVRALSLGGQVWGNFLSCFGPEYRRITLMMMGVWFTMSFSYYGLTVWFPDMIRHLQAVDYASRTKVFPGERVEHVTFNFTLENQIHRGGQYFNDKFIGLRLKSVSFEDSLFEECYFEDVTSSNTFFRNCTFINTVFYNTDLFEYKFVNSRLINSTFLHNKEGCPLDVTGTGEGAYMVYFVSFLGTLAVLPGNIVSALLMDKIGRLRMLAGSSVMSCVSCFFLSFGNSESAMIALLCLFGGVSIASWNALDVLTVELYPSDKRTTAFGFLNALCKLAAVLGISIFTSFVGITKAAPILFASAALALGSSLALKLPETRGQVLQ
UniProt P50391, sequence (whole entry, looked up): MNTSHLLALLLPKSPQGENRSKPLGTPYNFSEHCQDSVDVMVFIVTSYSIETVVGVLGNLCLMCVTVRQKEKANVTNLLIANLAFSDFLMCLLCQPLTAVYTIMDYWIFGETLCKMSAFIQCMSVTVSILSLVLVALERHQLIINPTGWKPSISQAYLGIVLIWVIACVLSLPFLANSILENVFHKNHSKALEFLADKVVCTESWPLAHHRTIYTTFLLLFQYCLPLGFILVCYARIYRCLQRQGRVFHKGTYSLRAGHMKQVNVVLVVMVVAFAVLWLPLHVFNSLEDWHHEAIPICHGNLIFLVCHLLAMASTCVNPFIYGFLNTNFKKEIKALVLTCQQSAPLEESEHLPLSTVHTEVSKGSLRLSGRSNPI
UniProt P23141, sequence (whole entry, looked up): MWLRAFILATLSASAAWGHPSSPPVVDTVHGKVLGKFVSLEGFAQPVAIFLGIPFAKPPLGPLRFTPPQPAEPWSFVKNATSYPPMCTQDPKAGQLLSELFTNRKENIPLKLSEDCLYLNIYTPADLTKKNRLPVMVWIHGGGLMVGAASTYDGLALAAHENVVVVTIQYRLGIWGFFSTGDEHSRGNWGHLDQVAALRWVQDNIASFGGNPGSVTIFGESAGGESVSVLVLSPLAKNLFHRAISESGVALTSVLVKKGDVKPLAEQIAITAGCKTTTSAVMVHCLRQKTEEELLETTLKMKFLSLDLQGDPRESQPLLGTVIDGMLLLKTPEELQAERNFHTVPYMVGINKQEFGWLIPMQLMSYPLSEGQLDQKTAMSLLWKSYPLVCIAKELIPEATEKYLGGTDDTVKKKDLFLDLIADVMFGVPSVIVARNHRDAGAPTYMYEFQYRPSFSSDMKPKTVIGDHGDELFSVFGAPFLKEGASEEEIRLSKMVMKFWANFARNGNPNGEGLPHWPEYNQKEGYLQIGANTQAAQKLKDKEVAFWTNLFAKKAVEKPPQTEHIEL

target = PTH1R; assay = calcium signal, agonist, fluorescence; measurement = Emax; value = 93.8%; SMILES = C=C1CC[C@H](OCCCNC(=O)CCOCCOCCOCCOCCOCCOCCOCCOCCOCCOCCOCCOCCOCCOCCOCCOCCOCCOCCOCCOCCOCCOCCOCCOCCOCCOCCOCCOCCOCCOCCOCCOCCOCCOCCOCCOCCNC(=O)CCN2C(=O)CC(SC[C@H](NC(=O)[C@H](Cc3ccccc3)NC(=O)[C@H](CC(N)=O)NC(=O)[C@H](Cc3c[nH]cn3)NC(=O)[C@@H](NC(=O)[C@H](CC(=O)O)NC(=O)[C@H](CCC(N)=O)NC(=O)[C@H](CC(C)C)NC(=O)[C@H](CCCCN)NC(=O)[C@H](CCCCN)NC(=O)[C@H](CCCNC(=N)N)NC(=O)[C@H](CC(C)C)NC(=O)[C@H](Cc3c[nH]c4ccccc34)NC(=O)[C@H](CCC(=O)O)NC(=O)[C@@H](NC(=O)[C@H](CCCNC(=N)N)NC(=O)[C@H](CCC(=O)O)NC(=O)[C@H](CCSC)NC(=O)[C@H](CO)NC(=O)[C@H](CC(N)=O)NC(=O)[C@H](CC(C)C)NC(=O)[C@H](Cc3c[nH]cn3)NC(=O)[C@H](CCCCN)NC(=O)CNC(=O)[C@H](CC(C)C)NC(=O)[C@H](CC(N)=O)NC(=O)[C@H](Cc3c[nH]cn3)NC(=O)[C@H](CCSC)NC(=O)[C@H](CC(C)C)NC(=O)[C@H](CCC(N)=O)NC(=O)[C@@H](NC(=O)[C@H](CCC(=O)O)NC(=O)[C@H](CO)NC(=O)[C@@H](NC(=O)[C@@H](N)CO)C(C)C)[C@@H](C)CC)C(C)C)C(C)C)C(N)=O)C2=O)C/C1=C/C=C1\CCC[C@]2(C)[C@@H]([C@H](C)CCCC(C)(C)O)CC[C@@H]12 (stereo partly drawn)
target = T1, ssDNA; assay = fluorescence light-up; conditions = pH 7.4, KCl 60 mM; measurement = binding; value = binds weakly; SMILES = Cc1cc(C=C2Sc3ccccc3N2CCCN2CCCC2)c2ccccc2[n+]1C
target = HIV-1 TAR RNA; conditions = 25 °C; measurement = binding free energy ΔG°; value = -8.63 ± 0.335 kcal/mol; SMILES = CC(=O)NCCN(CC(=O)NCCN(CC(=O)NCCN(CC(=O)NCCC(N)=O)C(=O)[C@@H](N)CCCNC(=N)N)C(=O)[C@@H](N)Cc1ccccc1)C(=O)[C@@H](N)Cc1ccccc1
target = PTH1R; assay = binding, NanoBRET; conditions = pH 5.5, acetate buffer; measurement = koff; value = 0.039 ± 0.006 s⁻¹; SMILES = CC[C@H](C)[C@H](NC(=O)[C@H](CCC(=O)O)NC(=O)[C@H](CO)NC(=O)[C@@H](NC(=O)[C@@H](N)CO)C(C)C)C(=O)N[C@@H](CCC(N)=O)C(=O)N[C@@H](CC(C)C)C(=O)N[C@@H](CCSC)C(=O)N[C@@H](Cc1c[nH]cn1)C(=O)N[C@@H](CC(N)=O)C(=O)N[C@@H](CC(C)C)C(=O)NCC(=O)N[C@@H](CCCCN)C(=O)N[C@@H](Cc1c[nH]cn1)C(=O)N[C@@H](CC(C)C)C(=O)N[C@@H](CC(N)=O)C(=O)N[C@@H](CO)C(=O)N[C@@H](CCSC)C(=O)N[C@@H](CCC(=O)O)C(=O)N[C@@H](CCCNC(=N)N)C(=O)N[C@H](C(=O)N[C@@H](CCC(=O)O)C(=O)N[C@@H](Cc1c[nH]c2ccccc12)C(=O)N[C@@H](CC(C)C)C(=O)N[C@@H](CCCNC(=N)N)C(=O)N[C@@H](CCCCN)C(=O)N[C@@H](CCCCN)C(=O)N[C@@H](CC(C)C)C(=O)N[C@@H](CCC(N)=O)C(=O)N[C@@H](CC(=O)O)C(=O)N[C@H](C(=O)N[C@@H](Cc1c[nH]cn1)C(=O)N[C@@H](CC(N)=O)C(=O)N[C@@H](Cc1ccccc1)C(=O)N[C@@H](CCCCNC(=O)c1ccc2c(c1)C1(OC2=O)c2ccc(N(C)C)cc2Oc2cc(N(C)C)ccc21)C(N)=O)C(C)C)C(C)C
target = PIM1 (Homo sapiens, UniProt P11309); assay = DNA-templated library selection; conditions = one selection round; measurement = enrichment factor; value = 0.91; SMILES = NC(=O)C1CCNC(=O)C(CCCNC(=O)c2cnccn2)NC(=O)C(Cc2ccco2)NC(=O)C(CC=Cc2ccccc2)NC(=O)C=CC(=O)N1 (stereo not drawn)
target = Membrane progesterone receptor epsilon (Paqr9, Mus musculus, UniProt Q6TCG2); assay = pPKA/PKA immunoblot; test system = MDA-MB-231 expressing Paqr9-GFP; conditions = 30 nM, 20 min; scale = relative to: control; measurement = PKA activation; value = 156 ± 18%; SMILES = C=C[C@]12CCC(=O)C=C1CC[C@H]1[C@@H]3CC[C@H](C(C)=O)[C@@]3(C)CC[C@@H]12
target = HIV-1 TAR RNA; measurement = non-electrostatic TΔS°; value = -5.93 ± 0.406 kcal/mol; SMILES = CC(=O)NCCN(CC(=O)NCCN(CC(=O)NCCN(CC(=O)NCCC(N)=O)C(=O)[C@@H](N)Cc1ccccc1)C(=O)[C@@H](N)CCCNC(=N)N)C(=O)[C@@H](N)Cc1ccccc1
target = Genome polyprotein, NS3 protease (Hepatitis C virus genotype 1b, UniProt P26663); assay = protease activity, inhibitor; measurement = IC50; value = inactive; SMILES = CC[C@@H](N[C@@H](C)CC(N)=O)c1ccc(Cl)c(Oc2ccccc2)c1F
target = NPY4R (Homo sapiens, UniProt P50391); assay = calcium mobilization, agonist, aequorin; test system = CHO-hY4-Gqi5-mtAEQ; conditions = concentration not given, unit not given; scale = relative to: 1 µM human pancreatic polypeptide; measurement = intrinsic activity; value = 0.61; SMILES = CC(=O)N[C@@H](Cc1ccc(O)cc1)C(=O)N[C@@H](CCCNC(=N)NC(=O)NCCCCN)C(=O)N[C@@H](CC(C)C)C(=O)N[C@@H](CCCNC(=N)N)C(=O)N[C@@H](Cc1ccc(O)cc1)C(N)=O
target = CES1 (Homo sapiens, UniProt P23141); assay = substrate; conditions = 50 µM, pH 8, 37 °C, enzyme purity 25%; measurement = specific activity; value = 1300 pmol/min/µg; SMILES = CCCCCCCC(=O)Nc1ccc(C)nc1OC
target = CNGA1 (Bos taurus, UniProt Q00194); assay = ion current, patch clamp; conditions = 200 nM, switch +50 to -50 mV, added: cGMP 2 mM; measurement = time constant of current decrease; value = 44 s; SMILES = CC1=C(/C=C/C(C)=C/C=C/C(C)=C/C=O)C(C)(C)CCC1
target = SV2A (Homo sapiens, UniProt Q7L0J3); assay = radioligand binding, autoradiography; test system = human, post-mortem hippocampus; conditions = 2 nM; measurement = total binding; value = 121 fmol/mg; SMILES = [3H]C([3H])([3H])c1cnccc1CN1C[C@@H](c2cc(F)c(F)c(F)c2)CC1=O
